Published values collected from several papers.
± gives the spread as reported.
PRMT5: Protein arginine N-methyltransferase 5 (PRMT5, Homo sapiens, UniProt O14744)

O=C1Nc2c(ccc(Cl)c2Cl)C1=NO  Hill coefficient (KCNN4/CALM1 (Homo sapiens, UniProt O15554+P0DP23, N201A); ion current, activator, whole-cell patch clamp; N201A mutant): 1.2
O=S(=O)([O-])[O-].[Mn+2]  Hill coefficient (alternative ancestral DyP peroxidase; peroxidase activity, substrate): 0.6
CN(C)C(=O)C(CCN1CCC(O)(c2ccc(Cl)cc2)CC1)(c1ccccc1)c1ccccc1  Hill coefficient (Calcium-activated potassium channel subunit alpha-1, with LRRC26 γ1 subunit (KCNMA1, Homo sapiens, UniProt Q12791); BK channel conductance, inside-out patch clamp; BKα/γ1, Vm -30 mV, nominally Ca2+-free): 1.48 ± 1.5
CCCCN1/C(=C/C=C(Br)/C=C/C2=[N+](CCCC)c3ccc(Br)cc3C2(C)C)C(C)(C)c2cc(Br)ccc21.[I-]  Hill coefficient (PRMT5; inhibitor, scintillation proximity; added: biotinylated histone H4 peptide substrate): 1.39
Nc1ncnc2c1ncn2[C@@H]1O[C@H](COP(=O)(O)OP(=O)(O)OP(=O)(O)O)[C@@H](O)[C@H]1O  Hill coefficient (P2X purinoceptor 2 (P2RX2, Homo sapiens, UniProt Q9UBL9); channel activation, agonist; transfected HEK293 cells; divalent-free solution, added: 10 mM EDTA): 1.3 ± 0.3
CC1(C)C(/C=C/C=C2/N(CCCc3ccccc3)c3ccc(Cl)cc3C2(C)C)=[N+](CCCc2ccccc2)c2ccc(Cl)cc21.[Br-]  Hill coefficient (PRMT5; inhibitor, scintillation proximity; added: biotinylated histone H4 peptide substrate): 15
Nc1c(N=Nc2ccc(S(=O)(=O)CCOS(=O)(=O)[O-])cc2)c(S(=O)(=O)[O-])cc2cc(S(=O)(=O)[O-])c(N=Nc3ccc(S(=O)(=O)CCOS(=O)(=O)[O-])cc3)c(O)c12.[Na+].[Na+].[Na+].[Na+]  Hill coefficient (alternative ancestral DyP peroxidase; peroxidase activity, substrate): 2
COc1cc(CNC(=O)CCCC/C=C/C(C)C)ccc1O  Hill coefficient (TRPV1 (Homo sapiens, UniProt Q8NER1); ion current, agonist, outside-out patch clamp; HEK293 expressing hTRPV1): 1.1
[Cl-].[Cl-].[Zn+2]  Hill coefficient (HVCN1 (Homo sapiens, UniProt Q96D96, E119H); whole-cell voltage clamp; 100 mV, open probability 0.55): 0.7
CC1(C)C(/C=C/C=C2/N(CCCc3ccccc3)c3ccc4ccccc4c3C2(C)C)=[N+](CCCc2ccccc2)c2ccc3ccccc3c21.[Br-]  Hill coefficient (PRMT5; inhibitor, scintillation proximity; added: biotinylated histone H4 peptide substrate): 15.4
CCCC[C@H](NC(=O)[C@H](C)c1c(C)[nH]c2ccc(O)cc12)c1ncc(-c2cc3ccccc3nc2OC)[nH]1  Hill coefficient (HTR2B (Homo sapiens, UniProt P41595)): 0.6

Excerpt of the above:
O=S(=O)([O-])[O-].[Mn+2]  Hill coefficient (alternative ancestral DyP peroxidase; peroxidase activity, substrate): 0.6
